Assay results gathered from unrelated publications.
Protocols differ between the studies behind these lines. Numbers after ± are the reported error.
SCTR: Secretin receptor (SCTR, Homo sapiens, UniProt P47872)
Chain of UniProt P47872 (whole entry, looked up): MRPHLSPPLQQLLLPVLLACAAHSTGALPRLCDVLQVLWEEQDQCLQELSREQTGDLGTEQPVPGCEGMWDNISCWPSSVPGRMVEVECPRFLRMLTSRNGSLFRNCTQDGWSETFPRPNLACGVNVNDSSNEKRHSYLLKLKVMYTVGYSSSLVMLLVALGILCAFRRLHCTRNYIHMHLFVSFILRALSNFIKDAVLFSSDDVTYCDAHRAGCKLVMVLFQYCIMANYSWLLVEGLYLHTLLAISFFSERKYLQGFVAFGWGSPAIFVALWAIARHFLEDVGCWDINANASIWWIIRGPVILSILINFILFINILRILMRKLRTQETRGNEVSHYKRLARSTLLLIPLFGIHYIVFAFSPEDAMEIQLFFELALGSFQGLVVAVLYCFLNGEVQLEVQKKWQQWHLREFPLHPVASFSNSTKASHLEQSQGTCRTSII
T1: ssRNA FMR1 5' UTR CGG repeat (Homo sapiens); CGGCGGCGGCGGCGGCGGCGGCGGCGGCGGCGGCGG
Chain of UniProt Q14191 (whole entry, looked up): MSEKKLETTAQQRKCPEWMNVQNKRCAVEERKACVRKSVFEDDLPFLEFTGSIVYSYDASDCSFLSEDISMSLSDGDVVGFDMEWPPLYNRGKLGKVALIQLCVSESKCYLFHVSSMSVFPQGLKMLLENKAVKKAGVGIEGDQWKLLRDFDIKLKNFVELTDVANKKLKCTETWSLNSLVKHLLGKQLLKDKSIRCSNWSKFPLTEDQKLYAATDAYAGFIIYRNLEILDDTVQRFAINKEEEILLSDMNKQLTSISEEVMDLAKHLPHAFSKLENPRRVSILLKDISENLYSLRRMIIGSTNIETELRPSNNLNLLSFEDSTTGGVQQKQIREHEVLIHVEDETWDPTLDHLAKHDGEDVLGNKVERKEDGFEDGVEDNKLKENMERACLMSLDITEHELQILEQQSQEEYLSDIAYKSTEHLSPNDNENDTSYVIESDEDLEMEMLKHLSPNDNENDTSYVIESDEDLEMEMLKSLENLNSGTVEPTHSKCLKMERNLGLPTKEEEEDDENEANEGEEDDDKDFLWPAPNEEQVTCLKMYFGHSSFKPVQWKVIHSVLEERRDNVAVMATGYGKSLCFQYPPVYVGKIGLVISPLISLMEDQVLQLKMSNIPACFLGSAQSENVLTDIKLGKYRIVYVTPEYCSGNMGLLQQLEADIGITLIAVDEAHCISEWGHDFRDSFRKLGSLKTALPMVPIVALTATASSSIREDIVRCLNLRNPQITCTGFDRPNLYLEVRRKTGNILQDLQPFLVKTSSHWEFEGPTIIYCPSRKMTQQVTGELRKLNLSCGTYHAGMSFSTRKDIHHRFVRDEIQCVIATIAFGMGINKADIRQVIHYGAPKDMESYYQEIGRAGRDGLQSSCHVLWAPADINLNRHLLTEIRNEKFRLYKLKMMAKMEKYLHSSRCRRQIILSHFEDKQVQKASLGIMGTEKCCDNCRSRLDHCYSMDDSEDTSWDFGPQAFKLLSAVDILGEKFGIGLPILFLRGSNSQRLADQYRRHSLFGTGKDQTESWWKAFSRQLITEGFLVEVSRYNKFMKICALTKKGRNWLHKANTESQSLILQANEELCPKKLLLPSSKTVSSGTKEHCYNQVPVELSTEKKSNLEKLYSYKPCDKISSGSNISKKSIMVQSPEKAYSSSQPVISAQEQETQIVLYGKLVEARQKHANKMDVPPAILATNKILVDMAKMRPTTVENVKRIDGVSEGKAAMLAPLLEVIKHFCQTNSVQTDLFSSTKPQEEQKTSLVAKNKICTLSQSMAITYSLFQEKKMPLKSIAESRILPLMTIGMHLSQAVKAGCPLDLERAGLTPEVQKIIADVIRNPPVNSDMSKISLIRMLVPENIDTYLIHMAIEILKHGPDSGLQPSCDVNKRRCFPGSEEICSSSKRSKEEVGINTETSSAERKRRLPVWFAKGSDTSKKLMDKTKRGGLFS
Chain of UniProt Q6GI75 (whole entry, looked up): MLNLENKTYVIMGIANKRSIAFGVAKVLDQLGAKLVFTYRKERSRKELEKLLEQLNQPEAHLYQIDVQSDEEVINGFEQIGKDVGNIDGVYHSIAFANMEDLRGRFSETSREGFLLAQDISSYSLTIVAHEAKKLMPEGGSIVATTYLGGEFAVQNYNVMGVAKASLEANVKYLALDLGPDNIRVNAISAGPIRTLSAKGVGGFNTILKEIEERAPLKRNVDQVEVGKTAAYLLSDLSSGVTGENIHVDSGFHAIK
Chain of UniProt Q8VHW5 (whole entry, looked up): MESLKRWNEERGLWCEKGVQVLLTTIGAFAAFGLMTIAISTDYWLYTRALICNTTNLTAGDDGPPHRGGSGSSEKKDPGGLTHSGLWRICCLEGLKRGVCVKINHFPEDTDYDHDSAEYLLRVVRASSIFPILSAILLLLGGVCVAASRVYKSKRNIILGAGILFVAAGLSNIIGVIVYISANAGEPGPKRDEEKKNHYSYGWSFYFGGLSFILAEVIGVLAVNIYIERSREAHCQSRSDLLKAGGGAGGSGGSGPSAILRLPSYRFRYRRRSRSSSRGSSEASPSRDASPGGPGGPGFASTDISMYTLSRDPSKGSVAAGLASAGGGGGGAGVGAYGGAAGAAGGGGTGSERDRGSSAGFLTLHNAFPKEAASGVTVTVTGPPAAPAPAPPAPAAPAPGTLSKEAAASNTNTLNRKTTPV
Chain of UniProt P31941 (whole entry, looked up): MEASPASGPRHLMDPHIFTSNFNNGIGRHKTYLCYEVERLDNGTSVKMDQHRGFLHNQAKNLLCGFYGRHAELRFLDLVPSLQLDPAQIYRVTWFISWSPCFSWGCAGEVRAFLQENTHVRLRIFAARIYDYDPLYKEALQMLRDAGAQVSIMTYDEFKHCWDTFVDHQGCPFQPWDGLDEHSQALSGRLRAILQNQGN

Compound | target | assay | test system | conditions | scale | endpoint | value
Nc1nc2c(ncn2C2CC(O)C(COP(=O)(O)OP(=O)(O)C(F)P(=O)(O)O)O2)c(=O)[nH]1 (mixture of isomers) | DNA polymerase beta (POLB, Homo sapiens, UniProt P06746) | nucleotide incorporation, substrate, single turnover kinetics |  | dG misincorporation opposite A |  | kpol/Kd | 7.6 ± 3.1 M⁻¹ s⁻¹
CCCN(CC(=O)N(CCC)CC(=O)N(CCC)CC(=O)N(CCC)CC(=O)N(CCC)CC(=O)N(CCC)CC(=O)N(CC(N)=O)Cc1cn(CCCNC(=O)CCCOc2cccc(-c3nc4ccc(-c5nc6ccc(N7CCN(C)CC7)cc6[nH]5)cc4[nH]3)c2)nn1)C(=O)CNCc1cn(CCCNC(=O)CCCOc2cccc(-c3nc4ccc(-c5nc6ccc(N7CCN(C)CC7)cc6[nH]5)cc4[nH]3)c2)nn1 | T1, ssRNA FMR1 5' UTR CGG repeat (Homo sapiens) | protein displacement, competitor, TR-FRET |  |  |  | IC50 | 23 µM
N=C(N)NCCC[C@H](NC(=O)[C@H](CCCNC(=N)N)NC(=O)[C@H](Cc1ccc(O)cc1)NC(=O)[C@H](CCCCN)NC(=O)[C@H](Cc1ccc(O)cc1)NC(=O)[C@H](CCCCN)NC(=O)[C@H](CCCCN)NC(=O)[C@@H](N)CCCNC(=N)N)C(=O)N[C@@H](CCCCN)C(N)=O | integrin alphaM beta2 (human) | ligand binding, inhibitor, flow cytometry | human neutrophils | concentration not given, 1 h, 37 °C, integrin clustering inhibitor, with: Alexa 488-labelled fibrinogen | relative to: no inhibitor, lower means less binding | bound fibrinogen fluorescence | 492 ± 50 MFI
[11CH3]c1ccc2nc(C3CCC3)n(-c3ccc4[nH]ncc4c3)c2n1 | Voltage-dependent calcium channel gamma-8 subunit (Rattus norvegicus, UniProt Q8VHW5) | PET | Sprague-Dawley rat, hippocampus | dose not given, with: blocker pretreatment 1 mg/kg | relative to: baseline | uptake reduction (AUC) | 43 to 53%
COc1ccc(-c2cc(C(F)(F)F)nc(S(=O)(=O)NCC(=O)Nc3ccc(C)cc3)n2)cc1 | WRN (Homo sapiens, UniProt Q14191) | ATPase activity, ADP-Glo |  |  |  | maximal inhibition | 55 to 60%
COc1ccc(-c2cc(C(F)(F)F)nc(SCC(=O)N(C)c3ccccc3)n2)cc1 | SCTR | allosteric modulator |  | with: secretin(1-23) |  | cooperativity factor α | 36
CCC1(O)CCCN(C(=O)c2ccc(-c3ccccc3C(F)(F)F)cc2)C1 (centres unmarked) | DNA dC->dU-editing enzyme APOBEC-3A (Homo sapiens, UniProt P31941) | binding, 1H CPMG NMR |  |  |  | signal attenuation | 63.8 ± 2.9%
Cc1cn([C@H]2C[C@H](O)[C@@H](COP(=O)(O)OP(=O)(O)C(Cl)(Cl)P(=O)(O)O)O2)c(=O)[nH]c1=O | DNA polymerase beta (POLB, Homo sapiens, UniProt P06746, I260M) | nucleotide incorporation rate, substrate, single-turnover kinetics | single-nucleotide gapped DNA | 37 °C, I260M, correct incorporation, with: dTTP opposite template A |  | kpol | 0.66 ± 0.09 s⁻¹
CC[C@H](C)[C@H](NC(=O)[C@H](CO)NC(=O)CNC(=O)[C@H](CCCNC(=N)N)NC(=O)CNC(=O)[C@H](C)NC(=O)CNC(=O)CCCCCNC(=O)CCCC[C@@H]1SC[C@@H]2NC(=O)N[C@@H]21)C(=O)N[C@@H](CC(=O)O)C(=O)N[C@H](C(=O)N[C@@H](Cc1c[nH]c2ccccc12)C(=O)N[C@H](C(=O)O)C(C)C)[C@@H](C)O | Erbin, PDZ domain (ERBIN, Homo sapiens, UniProt Q96RT1) | PDZ-mNG binding, DNA-PAINT |  | with: 26 nM PDZ-mNG |  | mean dark time | 102 ± 60 s
CCCCCCc1ccc(Oc2ccccc2N)c(O)c1 | Enoyl-[acyl-carrier-protein] reductase [NADPH] FabI (Staphylococcus aureus, UniProt Q6GI75) | enzyme activity, inhibitor, progress curve kinetics |  |  |  | residence time | 68.5 min
COc1cc(Cl)ccc1NC(=O)CCCS(=O)(=O)c1nc(-c2ccc(OC)c(OC)c2)cc(C(F)(F)F)n1 | SCTR | increase of tracer binding, TR-FRET | HEK293 membranes | with: Fluo-Sec 6 nM |  | Emax | 128 ± 15%
O=P(O)(O)O[C@@H]1[C@@H](O)[C@H](O)[C@H](O)[C@H](O)[C@H]1OP(=O)(O)O | Inositol 1,4,5-trisphosphate-gated calcium channel ITPR1, IP3-binding core (Itpr1, Rattus norvegicus, UniProt P29994, R504Q) | binding, 3H-IP3 competition |  | IP3-binding core | relative to: R504Q over wild type | fold loss of affinity | 1.4 fold
CN(Cc1ccc(/C=C/C(=O)NO)cc1)CC12CC3CC(CC(C3)C1)C2 | HDAC | PET | rat | 1 mg/kg, 24 h pretreatment, with: [11C]tracer |  | tracer binding in brain | no effect
CC[C@H](C)[C@H](NC(=O)[C@@H](NC(=O)[C@H](CCCCN)NC(=O)[C@@H](NC(=O)[C@@H]1CCCN1[C@@H]1CN(C(=O)[C@@H](NC(=O)[C@@H](NC(=O)[C@@H](NC(=O)[C@@H](NC(=O)[C@@H](NC(=O)[C@@H](N)CCCCN)C(C)C)C(C)C)C(C)C)[C@@H](C)CC)[C@@H](C)O)CC[C@H]1NS(=O)(=O)c1ccc(C)cc1)[C@@H](C)O)C(C)C)C(=O)N[C@@H](CC(C)C)C(=O)N[C@@H](Cc1c[nH]cn1)C(N)=O | MAPT (Homo sapiens, UniProt P10636) | inhibitor, ThT fluorescence |  | 5-fold over protein, with: heparin |  | aggregation inhibition | inhibited

For quick reference, copied from above:
Compound | target | assay | test system | conditions | scale | endpoint | value
CCCCCCc1ccc(Oc2ccccc2N)c(O)c1 | Enoyl-[acyl-carrier-protein] reductase [NADPH] FabI (Staphylococcus aureus, UniProt Q6GI75) | enzyme activity, inhibitor, progress curve kinetics |  |  |  | residence time | 68.5 min
